Experimental data of several laboratories.
Every numbered part comes from another study and shows a few of its results, in no order.
Sequence of UniProt Q9LQE8 (whole entry, looked up): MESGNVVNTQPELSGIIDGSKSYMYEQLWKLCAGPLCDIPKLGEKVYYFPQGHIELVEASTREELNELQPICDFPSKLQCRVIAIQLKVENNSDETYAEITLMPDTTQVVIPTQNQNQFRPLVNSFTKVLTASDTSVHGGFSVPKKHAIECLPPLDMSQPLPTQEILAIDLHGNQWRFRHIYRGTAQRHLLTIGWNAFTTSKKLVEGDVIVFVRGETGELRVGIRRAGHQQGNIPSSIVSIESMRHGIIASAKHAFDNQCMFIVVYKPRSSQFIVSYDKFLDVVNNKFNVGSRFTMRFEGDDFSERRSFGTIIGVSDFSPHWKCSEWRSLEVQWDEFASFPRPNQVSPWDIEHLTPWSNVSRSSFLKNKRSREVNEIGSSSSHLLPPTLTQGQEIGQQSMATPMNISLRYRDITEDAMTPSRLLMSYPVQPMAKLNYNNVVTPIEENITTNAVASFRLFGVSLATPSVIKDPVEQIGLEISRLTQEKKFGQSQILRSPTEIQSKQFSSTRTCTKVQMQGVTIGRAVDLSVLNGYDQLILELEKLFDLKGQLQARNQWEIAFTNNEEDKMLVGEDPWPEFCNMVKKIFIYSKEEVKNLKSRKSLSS
Sequence of UniProt Q9XED8 (whole entry, looked up): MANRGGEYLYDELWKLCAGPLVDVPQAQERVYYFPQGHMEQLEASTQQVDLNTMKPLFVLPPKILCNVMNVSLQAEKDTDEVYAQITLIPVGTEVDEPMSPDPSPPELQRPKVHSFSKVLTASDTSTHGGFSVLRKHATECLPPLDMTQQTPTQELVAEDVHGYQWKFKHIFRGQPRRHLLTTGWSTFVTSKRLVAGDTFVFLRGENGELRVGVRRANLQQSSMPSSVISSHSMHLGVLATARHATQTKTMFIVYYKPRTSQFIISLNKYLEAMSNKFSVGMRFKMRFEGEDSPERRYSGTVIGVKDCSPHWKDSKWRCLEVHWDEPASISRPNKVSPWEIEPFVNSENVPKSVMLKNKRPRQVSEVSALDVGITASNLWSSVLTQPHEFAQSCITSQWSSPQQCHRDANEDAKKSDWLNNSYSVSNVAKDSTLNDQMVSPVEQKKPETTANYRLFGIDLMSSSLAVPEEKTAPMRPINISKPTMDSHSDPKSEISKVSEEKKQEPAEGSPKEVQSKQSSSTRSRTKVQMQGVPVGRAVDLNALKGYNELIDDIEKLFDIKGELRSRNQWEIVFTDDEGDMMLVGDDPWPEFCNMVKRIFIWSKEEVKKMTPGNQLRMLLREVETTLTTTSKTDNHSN
Sequence of UniProt Q9ZPY6 (whole entry, looked up): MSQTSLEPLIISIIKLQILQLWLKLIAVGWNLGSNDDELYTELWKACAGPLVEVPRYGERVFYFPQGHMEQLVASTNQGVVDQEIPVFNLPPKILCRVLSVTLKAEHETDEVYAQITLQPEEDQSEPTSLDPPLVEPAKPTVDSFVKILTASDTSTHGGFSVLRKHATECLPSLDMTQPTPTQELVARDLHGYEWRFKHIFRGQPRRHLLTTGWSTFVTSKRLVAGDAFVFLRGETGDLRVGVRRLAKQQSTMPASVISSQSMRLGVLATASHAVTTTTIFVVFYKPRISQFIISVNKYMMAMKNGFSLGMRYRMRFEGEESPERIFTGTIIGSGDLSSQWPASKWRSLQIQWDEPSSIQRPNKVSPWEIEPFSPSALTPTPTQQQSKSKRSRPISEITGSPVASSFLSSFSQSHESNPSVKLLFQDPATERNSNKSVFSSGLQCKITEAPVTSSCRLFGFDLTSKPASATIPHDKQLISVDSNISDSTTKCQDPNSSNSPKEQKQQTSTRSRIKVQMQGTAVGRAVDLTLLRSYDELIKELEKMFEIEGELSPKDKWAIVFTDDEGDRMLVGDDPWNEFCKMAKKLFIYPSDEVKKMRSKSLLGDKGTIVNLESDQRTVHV
Sequence of UniProt P93024 (whole entry, looked up): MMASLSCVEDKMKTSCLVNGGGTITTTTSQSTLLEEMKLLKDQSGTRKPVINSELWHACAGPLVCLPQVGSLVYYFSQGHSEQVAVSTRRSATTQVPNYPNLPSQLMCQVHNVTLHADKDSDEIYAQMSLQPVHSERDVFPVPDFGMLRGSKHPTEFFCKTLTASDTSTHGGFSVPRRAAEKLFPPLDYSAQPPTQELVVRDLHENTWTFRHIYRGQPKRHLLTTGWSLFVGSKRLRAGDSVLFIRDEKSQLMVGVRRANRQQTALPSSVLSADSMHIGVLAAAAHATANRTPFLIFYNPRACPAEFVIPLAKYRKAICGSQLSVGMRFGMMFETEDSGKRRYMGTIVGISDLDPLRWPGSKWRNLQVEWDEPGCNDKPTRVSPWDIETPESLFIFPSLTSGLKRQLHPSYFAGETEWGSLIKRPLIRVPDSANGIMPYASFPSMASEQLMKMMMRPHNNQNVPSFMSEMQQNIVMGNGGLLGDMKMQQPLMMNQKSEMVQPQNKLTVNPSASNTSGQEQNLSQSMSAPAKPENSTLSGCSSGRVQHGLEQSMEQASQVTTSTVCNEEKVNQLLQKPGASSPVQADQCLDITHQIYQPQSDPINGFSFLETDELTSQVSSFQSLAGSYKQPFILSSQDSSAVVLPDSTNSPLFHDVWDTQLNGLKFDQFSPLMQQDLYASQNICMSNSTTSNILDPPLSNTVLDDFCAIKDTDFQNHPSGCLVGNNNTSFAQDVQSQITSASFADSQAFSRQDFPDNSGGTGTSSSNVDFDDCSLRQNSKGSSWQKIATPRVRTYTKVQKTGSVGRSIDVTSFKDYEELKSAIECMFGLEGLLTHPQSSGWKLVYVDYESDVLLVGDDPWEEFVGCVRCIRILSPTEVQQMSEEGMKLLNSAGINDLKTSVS

Sample 1 — observed: peptide-MHC binding; form: peptide; tested at: concentration not given
Target: HLA class I histocompatibility antigen, C alpha chain, allele C*04:01 (Homo sapiens, UniProt P10321)
`RRYRRIYDL`: binding “inactive”.
`YVDIYAASV` — result for binding: “inactive”.
`ETVWPFFYA`: binding “inactive”.
`YYFQSGNEI`: binding “inactive”.
For `KEMGFSPRL`, binding read “inactive”.

Sample 2 — technique: aptamer microarray, sandwich; form: DNA with 2'F-ANA; medium: in vitro; tested at: 200 nM; with: Cy3 exosite-II aptamer, 400 nM; direction: higher = stronger binding; strand: GGTTGGTGTGGTTGG
Target: Prothrombin, mature alpha-thrombin (F2, Homo sapiens, UniProt P00734)
Notes: whole 15-mer aptamer, many near background
For `2'F-ANA at 2 6 7 8 9 10 12 13 15`, “mean fluorescence intensity” read 135 a.u.
For `2'F-ANA at 2 3 4 5 6 9 10 12 13 14 15`, “mean fluorescence intensity” read 48.3 a.u.
Under “mean fluorescence intensity”, `2'F-ANA at 4 7 10 12 13 14` is recorded as 61.9 a.u.
`2'F-ANA at 1 4 5 9 10 11 14 15`: “mean fluorescence intensity” 44.3 a.u.
`2'F-ANA at 1 2 4 5 7 11 14 15`: “mean fluorescence intensity” 43.6 a.u.
`2'F-ANA at 2 3 8 10 11 12 13 15` — result for “mean fluorescence intensity”: 372 a.u.
`2'F-ANA at 1 2 4 8 11 13 14 15`: “mean fluorescence intensity” 51.1 a.u.
`2'F-ANA at 1 2 3 6 8 10 11 13 14`: “mean fluorescence intensity” 62.2 a.u.

Sample 3 — Molecule: B1 (ARF4 660-788); technique: two-hybrid; direction: higher = firmer interaction
B1: ARF4 660-788 (Arabidopsis thaliana, UniProt Q9ZTX9); chain QSSSKRICTKVHKQGSQVGRAIDLSRLNGYDDLLMELERLFNMEGLLRDPEKGWRILYTDSENDMMVVGDDPWHDFCNVVWKIHLYTKEEVENANDDNKSCLEQAALMMEASKSSSVSQPDSSPTITRV
The positive tests was 0 (ARF5 788-902 (Arabidopsis thaliana, UniProt P93024); reference: out of 2 tests).
It gave 0 for positive tests (ARF11 500-622 (Arabidopsis thaliana, UniProt Q9ZPY6); reference: out of 3 tests).
The positive tests was 0 (ARF9 519-638 (Arabidopsis thaliana, UniProt Q9XED8); weak activation fusion; reference: out of 2 tests).
For ARF14 497-605 (Arabidopsis thaliana, UniProt Q9LQE8); reference: out of 2 tests: positive tests read 0.

Further values, each from its own experiment
For `AAAVRKPIVLKR`, “binding enrichment score” read -0.0293 (human cyclin B1; peptide binding, yeast competitive growth sequencing; peptide, Saccharomyces cerevisiae, cyclin B1-Cln2 fusion; concentration not given, peptide tiling library; reference: Cln2 fusion control, direction not given).

Some of these lines once more (sample 2):
`2'F-ANA at 1 4 5 9 10 11 14 15`: “mean fluorescence intensity” 44.3 a.u.
